Measurements gathered from unrelated publications.
Parts stem from different laboratories: compare values within a part only. Values joined by “and” are separate records of one study, mostly repeats; a detail may differ.

Study 1
Compound: C[C@@H]1CN(c2ccc(-c3cc(C(=O)NCCOCCOCCOCCOCCNC(=O)Cn4cc(-c5[nH]cc(C(=O)N[C@@H](CC(N)=O)c6ccc(F)c(Cl)c6)c5-c5ccc(Cl)cc5F)cn4)ccc3F)cc2NC(=O)c2c[nH]c(=O)cc2C(F)(F)F)C[C@H](C)N1C
Target: DDB1- and CUL4-associated factor 1 (DCAF1, Homo sapiens, UniProt Q9Y4B6)
Chain of UniProt Q9Y4B6 (whole entry, looked up): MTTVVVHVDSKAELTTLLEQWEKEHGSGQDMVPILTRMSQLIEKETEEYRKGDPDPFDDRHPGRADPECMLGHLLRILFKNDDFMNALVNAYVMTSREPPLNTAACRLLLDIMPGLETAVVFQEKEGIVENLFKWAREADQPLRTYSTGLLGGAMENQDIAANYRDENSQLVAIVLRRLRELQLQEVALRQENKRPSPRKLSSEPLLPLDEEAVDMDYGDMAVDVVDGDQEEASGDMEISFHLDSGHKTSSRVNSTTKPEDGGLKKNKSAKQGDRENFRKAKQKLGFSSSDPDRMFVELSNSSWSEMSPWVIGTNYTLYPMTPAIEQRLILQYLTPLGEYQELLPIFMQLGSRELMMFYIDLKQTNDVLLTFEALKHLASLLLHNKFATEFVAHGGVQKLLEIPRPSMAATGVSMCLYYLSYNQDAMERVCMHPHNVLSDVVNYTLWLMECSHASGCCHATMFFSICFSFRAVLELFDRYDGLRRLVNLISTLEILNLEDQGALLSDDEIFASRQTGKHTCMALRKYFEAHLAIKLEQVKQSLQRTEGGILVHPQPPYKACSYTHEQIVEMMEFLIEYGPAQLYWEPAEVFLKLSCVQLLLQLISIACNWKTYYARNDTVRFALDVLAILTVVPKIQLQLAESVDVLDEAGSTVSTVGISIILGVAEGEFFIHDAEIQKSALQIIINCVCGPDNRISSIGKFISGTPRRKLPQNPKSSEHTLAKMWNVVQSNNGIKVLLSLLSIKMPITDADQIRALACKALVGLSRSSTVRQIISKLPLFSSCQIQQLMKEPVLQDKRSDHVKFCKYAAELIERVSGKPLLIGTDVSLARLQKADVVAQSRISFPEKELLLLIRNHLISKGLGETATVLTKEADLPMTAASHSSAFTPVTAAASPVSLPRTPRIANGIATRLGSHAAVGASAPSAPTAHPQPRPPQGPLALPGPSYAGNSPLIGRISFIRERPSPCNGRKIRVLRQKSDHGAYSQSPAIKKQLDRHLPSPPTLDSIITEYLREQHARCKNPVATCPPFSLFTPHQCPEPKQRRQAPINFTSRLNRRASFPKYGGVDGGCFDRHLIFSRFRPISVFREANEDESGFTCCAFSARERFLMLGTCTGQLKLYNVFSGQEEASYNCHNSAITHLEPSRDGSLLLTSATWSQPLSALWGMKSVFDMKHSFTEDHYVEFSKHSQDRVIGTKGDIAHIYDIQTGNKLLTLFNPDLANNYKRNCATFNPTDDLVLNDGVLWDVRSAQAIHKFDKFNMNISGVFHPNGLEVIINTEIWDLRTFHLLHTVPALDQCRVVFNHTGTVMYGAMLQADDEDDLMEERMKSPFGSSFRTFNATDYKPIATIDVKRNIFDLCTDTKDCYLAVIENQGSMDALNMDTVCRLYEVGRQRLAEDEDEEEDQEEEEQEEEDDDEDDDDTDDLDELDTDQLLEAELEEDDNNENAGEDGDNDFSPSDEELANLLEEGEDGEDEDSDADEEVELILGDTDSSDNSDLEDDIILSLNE
Effect on: thermal unfolding
Method: differential scanning fluorimetry
Tested at: 5.5 µM
Direction: higher = more unfolded
For 51 °C: “SYPRO Orange fluorescence” read 15200 a.u.
44.8 °C — “SYPRO Orange fluorescence”: 12100 a.u.
The “SYPRO Orange fluorescence” was 8230 a.u. (32.2 °C).
It gave 12700 a.u. for “SYPRO Orange fluorescence” (46 °C).

Study 2
SMILES: CCN1/C(=C/C=C2\CCCC(/C=C/C3=[N+](CC)c4ccccc4C3(C)C)=C2NCCCCCCCCN2CCC(Nc3nc4ccccc4n3Cc3ccc(F)cc3)CC2)C(C)(C)c2ccccc21
Cell line: U-87 MG
Tested at: concentration not given
Baseline: DMSO
It gave 0.829 for “log2 fold change” (measured: ATG4B mRNA).
The “log2 fold change” was -1.6 (measured: ATP2B4 mRNA).
It gave -0.933 for “log2 fold change” (measured: MYORG mRNA).
measured: LIN37 mRNA — “log2 fold change”: 0.907.
measured: H6PD — “log2 fold change”: -0.945.
The “log2 fold change” was -1.08 (measured: ORAI2 mRNA).
For measured: KLHL11 mRNA: “log2 fold change” read 1.18.
measured: HSPH1 mRNA — “log2 fold change”: 1.28.

Study 3
Target: E3 ubiquitin-protein ligase NEDD4, HECT domain (Homo sapiens, UniProt P46934)
Effect on: enzyme activity
Action: inhibitor
Method: Ub-TR-FRET
Matrix: HECT domain
Tested at: 100 µM
Direction: higher = more chain formation
Construct (P46934 938-1319, limits assumed): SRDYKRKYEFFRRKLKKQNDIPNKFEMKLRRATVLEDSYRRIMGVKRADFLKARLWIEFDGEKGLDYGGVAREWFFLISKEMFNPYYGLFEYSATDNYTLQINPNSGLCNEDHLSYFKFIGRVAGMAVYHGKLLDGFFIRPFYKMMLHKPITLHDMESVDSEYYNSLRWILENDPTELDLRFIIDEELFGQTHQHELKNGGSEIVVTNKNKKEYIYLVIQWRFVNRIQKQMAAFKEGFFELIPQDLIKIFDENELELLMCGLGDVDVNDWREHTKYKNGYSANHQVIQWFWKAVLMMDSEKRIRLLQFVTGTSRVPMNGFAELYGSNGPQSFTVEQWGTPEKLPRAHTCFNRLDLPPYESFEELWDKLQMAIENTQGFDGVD
Under “ubiquitin chain formation AUC”, CCOC(=O)/C=C/CNCCCN1c2ccccc2CCc2ccc(Cl)cc21 is recorded as 5910 a.u. and 5270 a.u. and 6230 a.u.
CC(C)ONC(=O)/C=C/CNCCCCN1c2ccccc2CCc2ccc(Cl)cc21.O=C(O)/C=C\C(=O)O: “ubiquitin chain formation AUC” 7140 a.u. and 7390 a.u. and 7480 a.u. and 7060 a.u. and 7260 a.u.
For CNC(=O)/C=C/CNCCCCN1c2ccccc2CCc2ccc(Cl)cc21.Cl, “ubiquitin chain formation AUC” read 9970 a.u. and 14000 a.u. and 11900 a.u. and 15500 a.u. and 9750 a.u. and 18000 a.u.
For CNC(=O)/C=C/CNCCCN1c2ccccc2CCc2ccc(Cl)cc21.Cl, “ubiquitin chain formation AUC” read 53400 a.u. and 57000 a.u. and 51300 a.u.
N#C/C=C/CNCCCCN1c2ccccc2CCc2ccc(Cl)cc21.O=C(O)/C=C\C(=O)O: “ubiquitin chain formation AUC” 8890 a.u. and 10200 a.u. and 9540 a.u. and 8860 a.u. and 9320 a.u. and 9480 a.u.
Under “ubiquitin chain formation AUC”, COC(=O)/C=C/C(=O)NCCCN1c2ccccc2CCc2ccc(Cl)cc21 is recorded as 142000 a.u. and 144000 a.u.
C=CC(=O)NCCCN1c2ccccc2CCc2ccc(Cl)cc21 — result for “ubiquitin chain formation AUC”: 188000 a.u. and 185000 a.u.
For CCOC(=O)/C=C/CNCCCCN1c2ccccc2C(=O)N(C)c2ccc(Cl)cc21.O=C(O)/C=C\C(=O)O, “ubiquitin chain formation AUC” read 11300 a.u. and 11800 a.u. and 11200 a.u.

Study 4
SMILES: Cc1ncsc1-c1ccc(C(CO)NC(=O)C2CC(O)CN2C(=O)C(C(C)C)n2cc(-c3ccc(COc4c(-c5c(C)c(F)cc6[nH]ncc56)c(C5CC5)cc5c(N6CC7CC6CN7)nc(OC6CCOCC6)nc45)cc3)nn2)cc1 (stereo not shown)
Effect on: cell growth or viability
Method: ATP luminescence
Time: 6 days
It gave 140% and 80.2% and 90.5% and 88.6% for viability (BXPC-3; 1 µM).
GP5d; 300 pM — viability: 86.5% and 91.7% and 68.9% and 69.8%.
The viability was 90.6% and 87% and 77.7% and 82.1% (ASPC1; 300 pM).
SW-403; 1 nM — viability: 81% and 94.7% and 100% and 112%.
GP2d; 1 µM — viability: 28.6% and 30% and 27.5% and 35%.

A few entries again (study 3):
Under “ubiquitin chain formation AUC”, CCOC(=O)/C=C/CNCCCN1c2ccccc2CCc2ccc(Cl)cc21 is recorded as 5910 a.u. and 5270 a.u. and 6230 a.u.
For CCOC(=O)/C=C/CNCCCCN1c2ccccc2C(=O)N(C)c2ccc(Cl)cc21.O=C(O)/C=C\C(=O)O, “ubiquitin chain formation AUC” read 11300 a.u. and 11800 a.u. and 11200 a.u.
Under “ubiquitin chain formation AUC”, COC(=O)/C=C/C(=O)NCCCN1c2ccccc2CCc2ccc(Cl)cc21 is recorded as 142000 a.u. and 144000 a.u.
